# Measured values gathered from unrelated publications.
# Each numbered part is a random draw from the data of one study; scales do not carry over between parts.

# Series 1
# Target: Histone acetyltransferase KAT6A, winged helix 2, GST fusion (KAT6A, Homo sapiens, UniProt Q92794, residues 85-181)
# Method: protein binding microarray
# Form: double-stranded DNA, one strand shown
# Medium: in vitro
# Tested at: not given
# Setting: 8-mer, flanks averaged, mean of 2 arrays, mostly near background
# Reference: not given
# Reading: higher = stronger binding
# Construct (chain): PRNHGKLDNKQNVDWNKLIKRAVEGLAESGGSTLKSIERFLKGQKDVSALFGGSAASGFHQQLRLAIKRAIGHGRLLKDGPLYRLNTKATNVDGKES
Oligonucleotide,E-score
GGCAAGGA,0.0479
ATACATCA,0.0277
AAGATCCT,0.0221
CATCACCA,-0.207
AGGAAGCC,-0.00081
CCCCCTCC,0.184
GCAAGACA,0.0299
ATGAGGAC,-0.146
ACCGGACC,0.103
ATAAACTG,0.146
CTTCGATC,0.0705
AAAGCAGG,0.101
AAGAGCGT,-0.11
CAGACGCC,-0.0459
ACTCACCT,-0.081
AACGGTCT,-0.216

# Series 2
# Target: Fragile X messenger ribonucleoprotein 1, C-terminal low-complexity region (Fmr1, Mus musculus, UniProt P35922)
# Method: RNA Bind-n-Seq
# Form: RNA
# Medium: in vitro
# Tested at: 200 nM
# Setting: whole 134-nt RNA, ends assumed
# Added: 150 mM LiCl
# Reference: input library
# Reading: higher = stronger binding
# All molecules: 7-deaza-guanosine replaces G
# Shared flanks, not repeated: GGGAGUUCUACAGUCCGACGAUC … UGGAAUUCUCGGGUGUCAAGG
Oligonucleotide,log2 enrichment
CUCAAGUCCUGUGCUACACAUCGUAUGUACCGAAUCGGGGAGGGGAGGGGAGGGAAAGUAUUAUGUUACGCCGUUCGGAUCUGCACUUCC,-0.11
UGGGAGGUGGAUUUUGUUUAUUUUUUUAGCUCAUUUCCAGGGGUGGGAAUUUUUUUUUAAUAUGUGUCAUGAAUAAAGUUGUUUUUCAAA,0.448
CUCAAGUCCUGUGCUACACAUCGUAUGUACCGAAUCGGUUGGGGUUGGGUUGGAAAGUAUUAUGUUACGCCGUUCGGAUCUGCACUUCCA,0.124
AAAGCAAGAGAUGGCUAGUGCUUCAUCCAGCCAAAGAGGUAUGCUUGUUGCUUAAUUAAACCUUAAAGGUAACUUUGAGUUACUCCAGUA,-2.14
CCUCAAGUCCUGUGCUACACAUCGUAUGUACCGAAUCGGGUGGGGUGGGGUGGAAAGUAUUAUGUUACGCCGUUCGGAUCUGCACUUCCA,-1.47
CACAGACAACACGCACCCACACAGACACAGAGGGAAGGGGUUGGGAUGGGGACAGGGUGCACAGCAGGGCGGGGUAGGACCCCACCCCCU,-0.357
CUCAAGUCCUGUGCUACACAUCGUAUGUACCGAAUCGGAGGAAAAAAAGGUGGAAAGUAUUAUGUUACGCCGUUCGGAUCUGCACUUCCA,-1.82
CUCAAGUCCUGUGCUACACAUCGUAUGUACCGAAUCGGGAAGGAAGGGAAGGGAAAGUAUUAUGUUACGCCGUUCGGAUCUGCACUUCCA,-0.448
UCAAGUCCUGUGCUACACAUCGUAUGUACCGAAUCGGAAAGGGGAAAGGGAAAGGAAAGUAUUAUGUUACGCCGUUCGGAUCUGCACUUC,-0.885
AAGUCCUGUGCUACACAUCGUAUGUACCGAAUCGGAGGAAAAAAAGGUUUUUUUGGAAAGUAUUAUGUUACGCCGUUCGGAUCUGCACUU,-2.18
AAGUCCUGUGCUACACAUCGUAUGUACCGAAUCGGGGAAAGGGGAAAGGGGAAAGGAAAGUAUUAUGUUACGCCGUUCGGAUCUGCACUU,-0.0529

# Series 3
# Target: RING finger protein unkempt homolog, zinc fingers 1-6, GST-SBP tag (UNK, Homo sapiens, UniProt Q9C0B0, residues 30-357)
# Method: RNA Bind-n-Seq
# Form: RNA
# Medium: in vitro
# Tested at: not given
# Setting: RNA with constant flanks, human and mouse sites, ends assumed
# Reference: input RNA pool
# Reading: higher = stronger binding
# Shared flanks, not repeated: GGGAGUUCUACAGUCCGACGAUC … CAACAGAGGAUUGAGCAUCA
# Residues (chain): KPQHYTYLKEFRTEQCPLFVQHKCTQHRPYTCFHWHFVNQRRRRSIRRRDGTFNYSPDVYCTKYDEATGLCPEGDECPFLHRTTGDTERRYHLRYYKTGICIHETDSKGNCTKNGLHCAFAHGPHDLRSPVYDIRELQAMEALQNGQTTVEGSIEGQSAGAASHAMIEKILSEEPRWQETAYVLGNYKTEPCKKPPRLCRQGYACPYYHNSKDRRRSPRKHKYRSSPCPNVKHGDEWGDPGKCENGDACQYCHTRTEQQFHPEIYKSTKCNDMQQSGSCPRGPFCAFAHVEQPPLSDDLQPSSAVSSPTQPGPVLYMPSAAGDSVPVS
Oligonucleotide,bound/input enrichment
CAAGAGGCUGGACCAAAUGGGAACCCCCUGCCCCGAGAGCAGCUGUUACUUUUAGGGACACUAACAGACCUAUCGGCAGACUUGGAACAAGAGUGCAGGAACGGAAGCCUCUAUGUGAGA,0.273 ratio
GAACGAAUUGACUUCUUACCUCACUAUGACACACUGGUUAAAAGUGGCAUGUAUGAAUAUUAUGCCAGUGAAGGACAAAAUCCUUUGCCAUUUGCUCUUGCGGAAUUAAUUGACAAUUCA,0.101 ratio
AUUUAUCUGUAUGAAAUUCCAGUAGUUAAUUUGAACAUUUAUUUAUAUGACGUUUGUAUUUUUAGGUCUUUAAUACAGUGUUUCUACCUCUCAUUUGUAACUGCAUGCAUUAUUCUUGAA,14.2 ratio
CAAGCAGCUCUUGAAUUUCAUGGUGUUGCCCAAGAUUUGUCUCAGCAGUUGGAUGGCUUAUUAGGGAUGUUGUGCGUAGAUGUAGCACCAGCUGAUGGAGCAUCGAUUCAGCAAACUUUA,0.359 ratio
AGCGAGCGAAAUCUUUGUACUUCUGAGUUCUUGCUGUAUGUAUGUUUUGUUUUAAAUCUGAUUAGGGACACCCAGCAGCUGGCCGGGAUUCUUGGAUUGCUCCUUGGGAGUUAAGAUUGU,0.287 ratio
CCAGGGGACAACAAACUGAAGACUAAAAUGUAUCUGGCUCUCCAAUCCUUAGAACAGGACCUUUCUAAAAUGGCUAUUAUGUACUGGAAGGCAACCAACGCCGCUCCCUUGGAUAAGAUU,0.294 ratio
GACAUUGCCAUCAACGAACUCAUGAAAAGAUACUGUCCUAAUUCCGUAUUGGUCAUCAUUGAUGUGAAGCCGAAGGACCUAGGGCUGCCUACAGAAGCGUACAUUUCAGUGGAAGAAGUC,0.0834 ratio
ACACCCAGUCGCCGAGUCCUGCCCUGUUCUGGCCGCCGGCCCCAACUGGACCUCGACAUCCUUAGCAGCCUCAUCAACUUGUGUGAUAGUCCUGUGUCCCCAUCUGAGGCCAGCCGAACA,0.231 ratio
AGAAAACAGAUAAAUAAUAUAUUUUAUAGGUUUAUUUAUGAAACAGAGCAUCAUAAUGGCAUAGCAGAGUUACUGGAAAUAUUGGGAAGUAUAAUUAAUGGAUUUGCCUUACCACUAAAA,1.15 ratio
CCUCUUUUCCAGUCCCAUGUUGAAGAUCUUUACGUAGAAGGGCUUCCUGAAGGGAUUCCUUUUAGAAGGCCGUCGACGUACGGCAUUCCUCGCCUUGAGAGGAUAUUGCUGGCGAAGGAA,0.134 ratio
GACAAAUGAAGGGAUUUAGAAGCCAAGUAAAUGUCAUUGGGAAGGAGAGCUACCACCACUGAGUGCUGAACAGUAAACUCAUUUUUCAGAGUUAAAAAAUUAUUUAAAAAAACAAGAUGG,0.668 ratio

# Series 4
# Target: RNA binding protein fox-1 homolog 2, RRM domain, GST-SBP tag (RBFOX2, Homo sapiens, UniProt O43251-10, residues 100-194)
# Method: RNA Bind-n-Seq
# Form: RNA
# Medium: in vitro
# Tested at: 365 nM
# Setting: natural RNA segment, single round, ends assumed
# Reference: no-protein control
# Reading: higher = stronger binding
# Shared flanks, not repeated: GGGAGUUCUACAGUCCGACGAUC … UGGAAUUCUCGGGUGCCAA
# Target sequence (chain): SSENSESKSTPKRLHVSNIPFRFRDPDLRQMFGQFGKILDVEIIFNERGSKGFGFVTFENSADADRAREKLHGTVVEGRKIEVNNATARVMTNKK
Oligonucleotide,RBNS enrichment (R)
CCCCAGAAACAUGACCUCCCACUGCAGGGUGUUGAAGGCCGAGCCCUCCCUCCGCUGAGCAUGUGAUGUCACCCCCUCUGUUUGGAGCUUCUUUAGGUCAAAGAAAUCAA,5.04
CCAUAGAGACCAGGAGGGAGAGCCUCUGUUUUGUAAACUAAGGAUAACCGAGUUUGCUAAAUUGAGAGGGGCUAUUGGGCCCUAGAGGACACUAGGAGACUGGUUAGGAC,0.4
UAAUUUAUUACAGUUUACUCUACUGCAUUUCUGUCAAGUUGAAAUGCAUGCCCUUCAGGGGAAGACUGUGAGUCAAGUUUAAUAAAUAAAAACCUAAUACUAAGCAAUAU,0.632
GGCUGGGCCUGUCCUGCCGUCAUGGCCCCCUGCUUCCUGCUCCUUGGAGCUGGCUCCCGGACCUUGCCCACCAUCCAUGCAGUGGCUCCCAGGGCAGAGCCUCUCCUUGU,0.337
UUACCACCUUCUCCCCACUUGAUGGUUCUUGACUUUGUAAAAAUUUAAAUAAAUGAAUGUCUAUACUUUUUAAGGAAAAGAGAAAAUACCAUGUCACAGAAAAGGUGAAA,0.658
UGCUUCAAAGACAGGAGUUCACUGGGGGAUUCAGAAAGCUUGCCGUUUAUGUUGGUCGCAUCAAACAGCUUGUGGGAUUGUUUCCUCUUCUGUACAUGUUUUCCCCUUUG,0.346
GUAGCGGCUUGGGUCUGACACAUCUUUGAACCUUGUGGCCAGGCCUGGACUUCGCCCCCAGGCCUAGGACCGCGGUGGGUGGAACCCUGCUACUGCCCCAACAGGGACUC,0.325
UCUUAGAAGCCAUAGAUUUGGACAAGCCCAGCAAGAUGGGUGUCCUUCCAGGCCUCUUCCCCUUUCCUCCAUCUCUGGCAACAGUUCUUGGGGUUUGGCAAUUGUUUGGA,0.324
GUACUUUCCCCGGAAACUACGUCAAGAGGCUGUGAAUUGCGCUCCCUCCUUCUGUAGAGGCCGCCUGCCAGCCAUGCACCUGCGUCAACGCGCCUGAAACACCCCGCGGG,0.284
AUAAAGCUAACCUUGAUAAUUUUACUUUUAAUUAAUUAUCUAAAUGAAAAAUGCUAUUAGCUGAACCACAUCCACAACAGCACAUAGAGCUCUAGAAGAGUUGAAACAUA,0.416
UUCCUCCAUGUGGAAAUGAGGAGAGAGGAAAGUGGAUUGCAAACCAAAAUGUGAGUCAGUGUGAUGAAGCAGUGGCUCUGUCAUCUCGGCCUUUAUCCAAUAACAAACCA,0.309
GAAGUUUGUCAAUGACUGAAAUGCGAGCAGUGUCACCCAGAGUUGUGGUCAGCCUUACCCCUUCUCCGAGAACAAGCAGAGCGCUCUAUUUUUAACUAUGUUACACUCGU,0.31

# Repeated from above (series 4):
Oligonucleotide,RBNS enrichment (R)
UUACCACCUUCUCCCCACUUGAUGGUUCUUGACUUUGUAAAAAUUUAAAUAAAUGAAUGUCUAUACUUUUUAAGGAAAAGAGAAAAUACCAUGUCACAGAAAAGGUGAAA,0.658
UGCUUCAAAGACAGGAGUUCACUGGGGGAUUCAGAAAGCUUGCCGUUUAUGUUGGUCGCAUCAAACAGCUUGUGGGAUUGUUUCCUCUUCUGUACAUGUUUUCCCCUUUG,0.346
GUAGCGGCUUGGGUCUGACACAUCUUUGAACCUUGUGGCCAGGCCUGGACUUCGCCCCCAGGCCUAGGACCGCGGUGGGUGGAACCCUGCUACUGCCCCAACAGGGACUC,0.325
UCUUAGAAGCCAUAGAUUUGGACAAGCCCAGCAAGAUGGGUGUCCUUCCAGGCCUCUUCCCCUUUCCUCCAUCUCUGGCAACAGUUCUUGGGGUUUGGCAAUUGUUUGGA,0.324
